Results from different studies.
Compare with care: the assays were run in different laboratories. “And” joins repeats or separate records; there may be more than shown. ± marks the error that the study gave. Converted amounts (≈) assume the structure as drawn.

| SMILES | tested on | assay | test system | setting | how to read | endpoint | result |
| --- | --- | --- | --- | --- | --- | --- | --- |
| COC1CN([C@H]2CC[C@H]([C@@]3(C)Oc4c(Cl)cc(C(=O)NCc5c(SC)cc(C)[nH]c5=O)c(C)c4O3)CC2)C1 | – | RNA-seq, refers to: LYPD1 mouse homolog | mouse, HT-1376 xenograft, whole blood | dose not given | reference: vehicle | log2 fold change | 4.57 |
| CO[C@@H]1[C@@H](OC(N)=O)[C@@H](O)[C@H](Oc2ccc3c(O)c(NC(=O)c4ccc(O)c(CC=C(C)C)c4)c(=O)oc3c2C)OC1(C)C | DLD-1 BRCA2-/- | – | – | 50 µM, replicate A | reference: untreated | colony survival | 28.8% |
| C=C[C@]1(C)C[C@@H](OC(=O)CSc2ccc(NC(=O)c3ccco3)cc2)[C@]2(C)[C@H](C)CC[C@]3(CCC(=O)[C@H]32)[C@@H](C)[C@@H]1O | Mycoplasma gallisepticum | – | infected chickens, lung | intramuscular, 50 mg/kg daily x3, 72 h | reference: 0 h | lung mycoplasma load reduction | 2.08 log10 CFU/mL and 1.84 log10 CFU/mL and 1.59 log10 CFU/mL and 1.08 log10 CFU/mL and 1.03 log10 CFU/mL and 1.39 log10 CFU/mL and 1.73 log10 CFU/mL and 1.45 log10 CFU/mL |
| C=CC(=O)Nc1cccc(Cn2ncc3cnc(Nc4cnn(CCOC)c4)nc32)c1 | IRAK4 human | binding, KINOMEscan | – | 100 nM | lower = stronger binding | percent of control | 95% |
| Nc1ncc(-c2cc(-c3cnn(CC(F)(F)F)c3)ncc2F)nc1C(=O)NC1CNCC(F)C1 (centres unmarked) | YSK4 | KINOMEscan | – | 1 µM | reference: DMSO control | remaining binding | 98% |
| CNS(=O)(=O)Nc1nccc(Cc2c(C)c3ccc(Oc4ncccc4F)cc3oc2=O)c1F | MeWo | cell viability | – | 7 days | – | IC50 | 10.4 nM |
| Cn1ncc2cc(-c3cncc(Cl)c3N3CCC4(CCNC4=O)CC3)ccc21 | LS174T | gene expression, microarray, refers to: NOD2 (CARD15) mRNA | – | concentration not given, 4 h | reference: untreated cells | log2 fold change | 1.05 |
| CN1CCCNC(=O)c2cccc(c2)C(=O)NCCCN(C)CCCNc2cccc3c2C(=O)c2cccc(c2C3=O)NCCC1 | SAS | RNA-Seq, refers to: EXT1 mRNA | – | 1 µM, 6 h | reference: untreated cells | log2 fold change | -1.44 |
| C=CC(=O)N1[C@@H](c2ccc3c(c2)OCO3)c2[nH]c3ccccc3c2C[C@H]1C(=O)N1CCN(C)CC1 | human cyclin E1 wild type-3xFLAG:CDK2 | co-IP with TMT proteomics, refers to: NCL | – | concentration not given, P19338 | reference: wild type DMSO | relative co-enrichment | 101% |
| CC(C)(C)NCC(SS(=O)(=O)O)c1ccccc1 (centres unmarked) | Schistosoma mansoni | – | mice | 600 mg/kg single dose, 1056 h, dosed day 15, perfused 44 | reference: vehicle | female worm burden reduction | 89% |
| CCN(CC)CC(=O)Nc1cccc(-n2cc(-c3ccc4ccc(-c5cn(-c6cccc(NC(=O)CN(CC)CC)c6)nn5)cc4c3)nn2)c1 | RCC4 | PCR angiogenesis array, refers to: PLAU | – | 5 x IC50, 2 h, normoxia | reference: untreated | fold regulation | -1.19 |
| N=C(N)NCCC[C@@H]1NC(=O)[C@H](CCCNC(=N)N)NC(=O)[C@@H](CCCNC(=N)N)NC(=O)[C@@H](CCCNC(=N)N)NC(=O)[C@@H](C(c2ccccc2)c2ccccc2)NC(=O)[C@H](Cc2c[nH]c3ccccc23)NC(=O)[C@@H](C(c2ccccc2)c2ccccc2)NC1=O | Candida albicans | – | SC5314 | – | – | MIC | 16 µg/mL (≈ 12.7 µM) |
| C=C(NC(=O)c1csc(-c2nc3c(cc2O)-c2nc(cs2)C(=O)NC(C(C)O)C(=O)NC(=C(C)OC)c2nc(cs2)C(=O)NC2c4nc(cs4)C(=O)NC(COC(=O)c4c5c6c(cccc6n4O)COC(=O)C(OC4CC(C)(O)C(N(C)C)C(C)O4)C2OC5)c2nc-3cs2)n1)C(N)=O (centres unmarked) | Staphylococcus aureus | – | ATCC 43300 MRSA | 2 x MIC, 2 h exposure | – | post-antibiotic effect | 1.29 ± 0.29 h |
| Cc1ncsc1-c1ccc(C(C)NC(=O)C2CC(O)CN2C(=O)C(NC(=O)CCCCCCCCCCN2CCCC(Nc3ncc(Cl)c(Nc4ccccc4S(=O)(=O)C(C)C)n3)C2)C(C)(C)C)cc1 (centres unmarked) | 22Rv1 | RNA-seq, refers to: METAP1D mRNA | – | concentration not given | reference: DMSO | log2 fold change | -1.12 |

A few entries again:
| SMILES | tested on | assay | test system | setting | how to read | endpoint | result |
| --- | --- | --- | --- | --- | --- | --- | --- |
| CO[C@@H]1[C@@H](OC(N)=O)[C@@H](O)[C@H](Oc2ccc3c(O)c(NC(=O)c4ccc(O)c(CC=C(C)C)c4)c(=O)oc3c2C)OC1(C)C | DLD-1 BRCA2-/- | – | – | 50 µM, replicate A | reference: untreated | colony survival | 28.8% |
| C=C[C@]1(C)C[C@@H](OC(=O)CSc2ccc(NC(=O)c3ccco3)cc2)[C@]2(C)[C@H](C)CC[C@]3(CCC(=O)[C@H]32)[C@@H](C)[C@@H]1O | Mycoplasma gallisepticum | – | infected chickens, lung | intramuscular, 50 mg/kg daily x3, 72 h | reference: 0 h | lung mycoplasma load reduction | 2.08 log10 CFU/mL and 1.84 log10 CFU/mL and 1.59 log10 CFU/mL and 1.08 log10 CFU/mL and 1.03 log10 CFU/mL and 1.39 log10 CFU/mL and 1.73 log10 CFU/mL and 1.45 log10 CFU/mL |
